Measurements collected from several papers.
Values joined by “and” are separate records of one study, mostly repeats; a detail may differ. Numbers after ± are the reported error.
nusB with NusE: Transcription antitermination protein NusB, with NusE (nusB, Bacillus subtilis, UniProt P54520)
TGFBR2: TGF-beta receptor type-2 (TGFBR2, Homo sapiens, UniProt P37173)
HTR7: 5-hydroxytryptamine receptor 7 (HTR7, Homo sapiens, UniProt P34969)
HTR2A: 5-hydroxytryptamine receptor 2A (HTR2A, Homo sapiens, UniProt P28223)
HDAC4: Histone deacetylase 4 (HDAC4, Homo sapiens, UniProt P56524)
gag-pol integrase: Gag-Pol polyprotein, integrase (gag-pol, Human immunodeficiency virus type 1 group M subtype B, UniProt P04585)
SCN4A: Sodium channel protein type 4 subunit alpha (SCN4A, Homo sapiens, UniProt P35499)
ESR2: Estrogen receptor beta (ESR2, Homo sapiens, UniProt Q92731)
GRM2: Metabotropic glutamate receptor 2 (GRM2, Homo sapiens, UniProt Q14416)
HTR2C: 5-hydroxytryptamine receptor 2C (HTR2C, Homo sapiens, UniProt P28335)

SMILES	target	assay	system	conditions	measurement	result
O=c1oc(-c2ccco2)nc2ccccc12	Cathepsin G (CTSG, Homo sapiens, UniProt P08311)	enzyme activity, inhibitor, chromogenic substrate hydrolysis		concentration not given, pH 7.4, 37 °C	inhibition	inhibited
Cc1cccc(O[C@@H]2CCC[C@H](C(C)CNCc3ccncc3)C2)c1 (relative stereo)	Mtnd1/Ndufs2/Ndufs7, complex I (Mus musculus, UniProt P03888+Q91WD5+Q9DC70)	NADH oxidation, inhibitor		1 µM	inhibition	~15%
O=C(O)c1cn(C2CC2)c2cc(N3CCNCC3)c(F)cc2c1=O	gyrA (Escherichia coli K-12, UniProt P0AES4)	enzyme activity, inhibitor, DNA supercoiling		1 µM	inhibition	55.5%
CC(=O)c1ccc(OC/C=C\COc2ccc(C(C)=O)cc2)cc1	nusB with NusE	NusE binding, inhibitor, competitive ELISA		25 µM	inhibition	17%
COc1ccc(-n2nc(OCCCN3CCCCC3)ccc2=O)cc1	NMDA receptor	radioligand binding		1.0 µM	inhibition	32.1 ± 3.44%
COc1ccc(F)cc1C(=O)NCc1ccc(-c2nn([C@@H](C)C(F)(F)F)c(N)c2C(N)=O)cc1	HCK (Homo sapiens, UniProt P08631)	target engagement, competitive chemoproteomics	human PBMCs	0.1 µM	inhibition	0.1%
CCNC(=O)Nc1ccc(OC/C=C\COc2ccc(CC(N)=O)cc2)cc1	nusB with NusE	NusE binding, inhibitor, competitive ELISA		25 µM	inhibition	13%
Fc1ccc(-c2ncn(-c3ccc4ccccc4c3)c2-c2ccncc2)cc1	TGFBR2	inhibitor		1 µM	inhibition	10%
CCS(=O)(=O)c1nc(S(=O)(=O)c2ccccc2Cl)c(N2CCN(C)C(=O)[C@H]2C)s1	HTR7			10 µM	inhibition	7%
N=C(N)NCCN1CCCCCCC1	Nedd8-cullin1 interaction	neddylation, AlphaScreen		100 µM	inhibition	-41.3%
CC12CC3CC(C)(C1)CC(N)(C3)C2	N-acyl-aromatic-L-amino acid amidohydrolase (carboxylate-forming) (Acy3, Mus musculus, UniProt Q91XE4)	inhibitor		concentration not given	inhibition	no inhibition
COc1ccc2c(c1)C(=O)N(CCN1CCN(c3ccccc3OC)CC1)C2	HTR2A	radioligand binding		concentration not given, added: [3H]ketanserin	inhibition	38.4%
NC/C(=C\F)COc1cccc(Cn2c(=S)[nH]c(=O)c3[nH]cnc32)c1	AOC3 (Homo sapiens, UniProt Q16853)	H2O2 production, Amplex Red		1 µM, recombinant human enzyme	inhibition	100% and 103%
CC(N)(Cc1c[nH]c2ccccc12)C(=O)O (racemic)	Sodium- and chloride-dependent neutral and basic amino acid transporter B(0+) (Slc6a14, Mus musculus, UniProt Q9JMA9)	transporter current	Xenopus oocytes	1 mM	inhibition	92.3 ± 1.1%
O=C(NO)c1cncc(OS(=O)(=O)Oc2ccc(C(F)(F)F)cc2)c1	HDAC4			10 µM	inhibition	38%
Cn1cc(-c2ccccc2)c2ccc(-c3cc(C(F)(F)F)cc(C(F)(F)F)c3)nc21	gag-pol integrase	strand transfer, inhibitor	HIV-1	10 µM	inhibition	36.4%
Cc1ccc(C(=O)Nc2ccc3ccccc3c2)o1	SCN4A	ion current, whole-cell patch-clamp		10 µM, hNaV1.4	inhibition	7.02%
CC(C)=CCc1cc(-c2coc3cc(O)ccc3c2=O)ccc1O	ESR2	array formation, agonist	GFP-ERβ PRL-HeLa	1 h	EC50	50.4 nM
O=C(NO)c1cncc(OS(=O)(=O)Oc2ccc(-n3ccnc3)cc2)c1	HDAC4			10 µM	inhibition	38%
N=C(NN)N/N=C/c1ccc(OC/C=C\COc2ccc(/C=N/NC(=N)NN)cc2)cc1	nusB with NusE	NusE binding, inhibitor, competitive ELISA		25 µM	inhibition	31%
COc1cc(C(=O)NS(=O)(=O)c2ccccc2C)ccc1Cc1cn(C)c2ccc(NC(=O)OC3CCCC3)cc12	Volume-regulated anion channel subunit LRRC8C, part LRRC8A IL1 chimera (LRRC8C, Homo sapiens, UniProt Q8TDW0, L136K)	ion current, inhibitor, whole-cell patch clamp	HCT LRRC8-/- cells	3 µM, +100 mV	inhibition	93.3% and 83.5% and 94.6% and 92.2% and 95.3% and 90.6% and 92.9%
Cc1cc(-c2ccnc3[nH]cc(F)c23)cc(F)c1[C@@]1(O)[C@H](C)CN(C(=O)CN)C[C@@H]1C	ROCK1 and ROCK2	ATP probe binding, KiNativ, item: Lys2 site	HEK293T cell lysate	0.1 µM	inhibition	12.7%
O=C(CN1CCO[C@@H](COc2ccccn2)C1)N1CCc2ccccc21	HTR7	radioligand binding		concentration not given, added: [3H]LSD	inhibition	-15.6%
CCCCC/C=C/C(=O)CCc1ccc(O)c(OC)c1	ESR2	array formation, agonist	GFP-ERβ PRL-HeLa	1 h	EC50	2320 nM
O=C(NO)c1ccc(CN2CCCCc3ccccc32)c(F)c1	HTR7	radioligand binding, PDSP radioligand binding		10 µM	inhibition	-9.14%
CC(C)(NC(=O)O[C@@H]1CN2CCC1CC2)c1csc(-c2ccc(F)cc2)n1	PRMT1 (Homo sapiens, UniProt Q99873)	enzyme activity, inhibitor		100 µM	inhibition	no inhibition
CCNC(=O)Nc1ccc(OC/C=C\COc2ccc(CC(=O)O)cc2)cc1	nusB with NusE	NusE binding, inhibitor, competitive ELISA		25 µM	inhibition	17%

SMILES	target	assay	system	conditions	measurement	result
CC[C@@H]1[C@H](F)C(=O)N[C@@H]1COc1nccc2cc(C(N)=O)c(OC)cc12	GRK2 (Homo sapiens, UniProt P25098)	ATP-site probe binding, ActivX profiling, item: BARK1	THP-1 cell lysate	0.01 mM, Lys2 site	inhibition	5.6%
OCCCN1CC[C@@H]2C[C@H]1c1cc(-c3ccc(C(F)(F)F)cc3)ccc12	HTR7	radioligand binding, PDSP competition binding		10 µM	inhibition	< 50%
Cn1cc(-c2ccc3c(c2)OCO3)c2ccc(Cl)nc21	gag-pol integrase	strand transfer, inhibitor	HIV-1	10 µM	inhibition	54%
Cc1nn(-c2ccc(F)cc2F)c(=O)c2nocc12	GRM2	cAMP accumulation, antagonist		10 µM, added: glutamate 1 µM, forskolin	inhibition	-48%
Fc1ccc(-c2c(-c3ccncc3)ncn2-c2ccc(-c3ccccc3)cc2)cc1	TGFBR2	inhibitor		1 µM	inhibition	43%
COc1ccc(Cn2cc(-c3ccc4c(c3)OCO4)c3ccc(-c4ccc5ccccc5c4)nc32)cc1	gag-pol integrase	strand transfer, inhibitor	HIV-1	10 µM	inhibition	24.1%
COc1cccc(F)c1Cn1cnc(-c2ccc(F)cc2)c1-c1ccncc1	TGFBR2	inhibitor		1 µM	inhibition	24%
CCNC(=O)Nc1ccc(OCc2cocc2COc2ccc(NC(=O)NCC)cc2)cc1	nusB with NusE	NusE binding, inhibitor, competitive ELISA		25 µM	inhibition	12%
Cc1ccnc(OC[C@H]2CN(CC(=O)N3CCc4ccccc43)CCO2)c1	HTR2C	radioligand binding		concentration not given, added: [3H]mesulergine	inhibition	20.3%
COc1ccccc1OCCNCC(O)COc1cccc2[nH]c3ccccc3c12 (stereo not drawn)	Nedd8-cullin1 interaction	neddylation, AlphaScreen		100 µM	inhibition	89.8%
CCN(CC)c1ccc(C2Nc3ccc(C(=O)c4ccccc4)cc3NC3=C2C(=O)CC(C)(C)C3)cc1 (stereo not drawn)	calcium channel	binding		10 µM	inhibition	24%
CN(C(=O)n1cnc(-c2ccc[n+]([O-])c2)c1)C1CCCCC1	Histamine H1 receptor (Bos taurus, UniProt P30546)	binding		10 µM	inhibition	1.73%
CC(C)c1noc2ncc(C(=O)c3ccccc3O)cc12	SCN4A	ion current, whole-cell patch-clamp		10 µM, hNaV1.4	inhibition	1.74%
O=C1c2ccccc2CCN1CCCCN1CCN(c2cccc(Cl)c2Cl)CC1	HTR2C	radioligand binding		concentration not given, added: [3H]mesulergine	inhibition	93.8%
CN1CCN(c2cc(-c3ccncc3)c(-c3ccc4ccccc4c3)nn2)CC1	TBXA2R (Homo sapiens, UniProt P21731)	antagonist, FLIPR		10 µM	inhibition	2.6%
Cc1ncccc1OC[C@H]1CN(CCN2CCc3ccccc32)CCO1	HTR7	radioligand binding		concentration not given, added: [3H]LSD	inhibition	64.2%
Cn1cc(-c2ccc3c(c2)OCO3)c2ccc(-c3ccncc3)nc21	gag-pol integrase	strand transfer, inhibitor	HIV-1	10 µM	inhibition	71.3%
Clc1cncc(OC[C@@H]2CN(CCN3CCc4ccccc43)CCO2)c1	HTR2A	radioligand binding		concentration not given, added: [3H]ketanserin	inhibition	39.9%
COc1c([C@H]2[C@H](C(=O)Nc3ccnc(C(N)=O)c3)O[C@@](C)(C(F)(F)F)[C@H]2C)ccc(F)c1F	SCN10A (Homo sapiens, UniProt Q9Y5Y9)	ion current, antagonist, whole-cell patch clamp	HEK293T cells	10 nM, resting state (TP1)	inhibition	98.1%
Clc1cccc(OC[C@@H]2CN(CCN3CCc4ccccc43)CCO2)c1	HTR2C	radioligand binding		concentration not given, added: [3H]mesulergine	inhibition	79.1%
COc1cccc(F)c1Cn1cnc(-c2ccncc2)c1-c1ccc(F)cc1	TGFBR2	inhibitor		1 µM	inhibition	42%
Cc1cc(-c2ccnc3[nH]cc(F)c23)cc(F)c1[C@@]1(O)[C@H](C)CN(C2CCS(=O)(=O)CC2)C[C@@H]1C	ROCK1 and ROCK2	ATP probe binding, KiNativ, item: Lys2 site	HEK293T cell lysate	1 µM	inhibition	-0.1%
Cc1nn(-c2ccccc2)c(=O)c2nocc12	GRM2	cAMP accumulation, antagonist		10 µM, added: glutamate 1 µM, forskolin	inhibition	-33%
Fc1ccc(-c2ncn(-c3ccc(-c4ccccc4)cc3)c2-c2ccncc2)cc1	TGFBR2	inhibitor		1 µM	inhibition	48%
COc1cc2c(cc1OC)C(=O)C(CC1CCN(Cc3ccccc3)CC1)C2 (stereo not drawn)	HTR2A	radioligand binding		concentration not given, added: [3H]ketanserin	inhibition	29.7%
Cc1cccc(-c2cn(C)c3nc(Cl)ccc23)c1	gag-pol integrase	strand transfer, inhibitor	HIV-1	10 µM	inhibition	19.4%
CCOC(=O)c1cnn(-c2ccc(NC(=O)C(Cl)=C(Cl)Cl)cc2)c1C(F)(F)F	Short transient receptor potential channel 7 (Homo sapiens, UniProt Q9HCX4)	ion current, inhibitor, whole-cell patch clamp		10 µM, added: carbachol	inhibition	inhibited

Repeated from above:
SMILES	target	assay	system	conditions	measurement	result
CC[C@@H]1[C@H](F)C(=O)N[C@@H]1COc1nccc2cc(C(N)=O)c(OC)cc12	GRK2 (Homo sapiens, UniProt P25098)	ATP-site probe binding, ActivX profiling, item: BARK1	THP-1 cell lysate	0.01 mM, Lys2 site	inhibition	5.6%
OCCCN1CC[C@@H]2C[C@H]1c1cc(-c3ccc(C(F)(F)F)cc3)ccc12	HTR7	radioligand binding, PDSP competition binding		10 µM	inhibition	< 50%
Cn1cc(-c2ccc3c(c2)OCO3)c2ccc(Cl)nc21	gag-pol integrase	strand transfer, inhibitor	HIV-1	10 µM	inhibition	54%
Cc1nn(-c2ccc(F)cc2F)c(=O)c2nocc12	GRM2	cAMP accumulation, antagonist		10 µM, added: glutamate 1 µM, forskolin	inhibition	-48%
